# Results collected from several papers.
# Numbered parts are unrelated; each lists some results of a single study.
# Sequence of UniProt P62344 (whole entry, looked up): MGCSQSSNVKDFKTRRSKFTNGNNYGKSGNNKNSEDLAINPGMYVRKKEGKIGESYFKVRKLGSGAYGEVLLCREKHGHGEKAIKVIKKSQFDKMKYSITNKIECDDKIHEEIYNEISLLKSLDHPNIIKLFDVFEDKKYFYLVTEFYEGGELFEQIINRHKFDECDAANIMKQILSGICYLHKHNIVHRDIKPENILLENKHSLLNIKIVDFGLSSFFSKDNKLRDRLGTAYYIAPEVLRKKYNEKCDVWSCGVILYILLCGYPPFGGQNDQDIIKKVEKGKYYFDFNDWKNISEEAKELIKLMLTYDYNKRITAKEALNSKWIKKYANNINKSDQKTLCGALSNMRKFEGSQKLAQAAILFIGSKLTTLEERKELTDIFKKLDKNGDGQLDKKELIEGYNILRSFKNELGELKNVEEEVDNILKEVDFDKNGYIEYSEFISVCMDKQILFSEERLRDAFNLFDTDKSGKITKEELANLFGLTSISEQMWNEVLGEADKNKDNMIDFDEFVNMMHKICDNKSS
# Sequence of UniProt Q9H093 (whole entry, looked up): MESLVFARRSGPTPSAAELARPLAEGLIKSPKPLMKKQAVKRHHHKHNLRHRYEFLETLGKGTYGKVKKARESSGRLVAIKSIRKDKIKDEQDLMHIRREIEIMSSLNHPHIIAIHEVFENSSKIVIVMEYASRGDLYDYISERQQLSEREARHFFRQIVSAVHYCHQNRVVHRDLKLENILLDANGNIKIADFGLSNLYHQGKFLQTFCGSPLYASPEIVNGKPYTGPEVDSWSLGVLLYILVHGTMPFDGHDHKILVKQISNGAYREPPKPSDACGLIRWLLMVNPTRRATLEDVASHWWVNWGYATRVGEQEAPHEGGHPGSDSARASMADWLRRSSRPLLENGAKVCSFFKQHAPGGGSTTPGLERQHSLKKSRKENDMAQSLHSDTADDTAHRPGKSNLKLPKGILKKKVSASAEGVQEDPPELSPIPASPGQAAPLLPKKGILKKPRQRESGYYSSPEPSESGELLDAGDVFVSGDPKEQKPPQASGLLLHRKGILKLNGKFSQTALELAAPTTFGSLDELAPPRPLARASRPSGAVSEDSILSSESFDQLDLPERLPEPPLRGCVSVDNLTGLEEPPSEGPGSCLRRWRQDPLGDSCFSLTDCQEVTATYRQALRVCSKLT
# Sequence of UniProt Q9UHD2 (whole entry, looked up): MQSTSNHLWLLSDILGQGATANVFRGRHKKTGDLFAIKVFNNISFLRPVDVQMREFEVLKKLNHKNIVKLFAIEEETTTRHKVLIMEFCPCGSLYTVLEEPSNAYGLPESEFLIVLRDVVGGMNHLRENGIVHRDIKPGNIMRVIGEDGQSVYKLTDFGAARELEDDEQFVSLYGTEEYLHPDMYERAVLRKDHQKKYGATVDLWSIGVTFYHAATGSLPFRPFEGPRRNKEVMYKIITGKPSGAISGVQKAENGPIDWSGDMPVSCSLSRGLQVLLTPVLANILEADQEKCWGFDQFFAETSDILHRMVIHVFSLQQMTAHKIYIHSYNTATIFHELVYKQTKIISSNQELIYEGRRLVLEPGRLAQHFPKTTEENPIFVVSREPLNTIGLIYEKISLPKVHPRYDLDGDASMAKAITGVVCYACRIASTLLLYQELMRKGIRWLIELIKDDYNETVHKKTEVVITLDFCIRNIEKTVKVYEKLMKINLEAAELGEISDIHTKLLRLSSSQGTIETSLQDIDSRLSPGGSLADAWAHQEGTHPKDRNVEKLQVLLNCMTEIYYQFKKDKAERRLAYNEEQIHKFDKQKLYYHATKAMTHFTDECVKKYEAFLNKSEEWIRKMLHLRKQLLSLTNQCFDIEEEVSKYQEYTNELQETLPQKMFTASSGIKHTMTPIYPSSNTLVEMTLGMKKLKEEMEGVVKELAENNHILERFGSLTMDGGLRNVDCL
# Sequence of UniProt P35626 (whole entry, looked up): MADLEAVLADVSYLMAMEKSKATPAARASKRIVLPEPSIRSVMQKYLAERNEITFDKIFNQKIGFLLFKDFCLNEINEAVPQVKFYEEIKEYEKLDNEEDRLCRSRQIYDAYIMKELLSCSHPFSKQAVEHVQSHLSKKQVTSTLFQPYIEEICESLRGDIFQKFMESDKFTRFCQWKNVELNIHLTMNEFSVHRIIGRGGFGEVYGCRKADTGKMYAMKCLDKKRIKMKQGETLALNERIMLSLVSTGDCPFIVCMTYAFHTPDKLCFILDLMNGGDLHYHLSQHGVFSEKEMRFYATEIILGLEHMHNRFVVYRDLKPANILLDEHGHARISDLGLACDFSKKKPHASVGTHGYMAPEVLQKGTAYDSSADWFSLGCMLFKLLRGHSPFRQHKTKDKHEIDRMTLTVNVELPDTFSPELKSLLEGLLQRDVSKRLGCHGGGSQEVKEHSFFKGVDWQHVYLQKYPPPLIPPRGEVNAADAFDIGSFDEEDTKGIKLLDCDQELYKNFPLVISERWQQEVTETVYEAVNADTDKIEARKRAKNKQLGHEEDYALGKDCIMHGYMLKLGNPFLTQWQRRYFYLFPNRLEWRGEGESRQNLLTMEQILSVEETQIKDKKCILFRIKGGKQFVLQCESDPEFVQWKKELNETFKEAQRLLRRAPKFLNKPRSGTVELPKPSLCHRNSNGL
# Sequence of UniProt Q9UL54 (whole entry, looked up): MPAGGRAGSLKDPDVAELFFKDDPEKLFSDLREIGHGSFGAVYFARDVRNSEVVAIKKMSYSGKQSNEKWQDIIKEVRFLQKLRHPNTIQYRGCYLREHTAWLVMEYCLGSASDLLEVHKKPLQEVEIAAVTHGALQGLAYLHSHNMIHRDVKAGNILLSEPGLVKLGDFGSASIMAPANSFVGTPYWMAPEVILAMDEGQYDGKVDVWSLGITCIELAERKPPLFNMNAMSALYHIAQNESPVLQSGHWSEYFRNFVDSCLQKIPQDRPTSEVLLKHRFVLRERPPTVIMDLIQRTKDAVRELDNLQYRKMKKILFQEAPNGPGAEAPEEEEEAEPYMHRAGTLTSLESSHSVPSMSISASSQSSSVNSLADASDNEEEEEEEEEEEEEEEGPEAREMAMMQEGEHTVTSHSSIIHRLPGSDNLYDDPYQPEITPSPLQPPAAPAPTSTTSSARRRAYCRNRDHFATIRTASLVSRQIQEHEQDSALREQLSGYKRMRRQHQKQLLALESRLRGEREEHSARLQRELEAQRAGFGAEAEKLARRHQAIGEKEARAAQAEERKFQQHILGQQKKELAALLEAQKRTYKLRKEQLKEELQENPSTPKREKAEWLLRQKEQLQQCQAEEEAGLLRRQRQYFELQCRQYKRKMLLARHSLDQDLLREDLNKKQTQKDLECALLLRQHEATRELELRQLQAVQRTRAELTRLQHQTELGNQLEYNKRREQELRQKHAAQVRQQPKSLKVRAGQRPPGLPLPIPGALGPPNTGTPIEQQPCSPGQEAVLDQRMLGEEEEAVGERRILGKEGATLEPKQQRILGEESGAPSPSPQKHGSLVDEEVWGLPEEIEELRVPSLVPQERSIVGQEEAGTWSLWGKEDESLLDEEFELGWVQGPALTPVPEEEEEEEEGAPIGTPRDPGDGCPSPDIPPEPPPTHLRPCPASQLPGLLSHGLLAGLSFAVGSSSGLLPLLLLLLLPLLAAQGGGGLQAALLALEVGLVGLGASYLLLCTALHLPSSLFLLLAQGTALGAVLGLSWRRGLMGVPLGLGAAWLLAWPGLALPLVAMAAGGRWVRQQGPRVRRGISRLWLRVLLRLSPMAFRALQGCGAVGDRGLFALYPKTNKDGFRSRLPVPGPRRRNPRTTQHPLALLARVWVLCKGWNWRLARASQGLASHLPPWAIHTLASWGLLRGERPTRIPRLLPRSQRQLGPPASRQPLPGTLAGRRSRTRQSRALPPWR
# Sequence of UniProt Q13163 (whole entry, looked up): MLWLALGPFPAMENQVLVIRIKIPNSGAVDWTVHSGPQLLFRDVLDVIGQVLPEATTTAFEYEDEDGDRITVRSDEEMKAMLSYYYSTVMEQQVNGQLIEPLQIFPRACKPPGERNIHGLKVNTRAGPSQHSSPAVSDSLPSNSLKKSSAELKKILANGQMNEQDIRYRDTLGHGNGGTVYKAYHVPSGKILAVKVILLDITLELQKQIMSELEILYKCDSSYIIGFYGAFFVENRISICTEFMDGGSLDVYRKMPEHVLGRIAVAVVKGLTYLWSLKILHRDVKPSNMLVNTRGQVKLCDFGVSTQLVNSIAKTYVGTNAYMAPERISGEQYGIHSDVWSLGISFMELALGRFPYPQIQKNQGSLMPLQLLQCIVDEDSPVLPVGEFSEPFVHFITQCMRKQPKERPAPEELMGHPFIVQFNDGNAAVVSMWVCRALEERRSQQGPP
# Sequence of UniProt Q00526 (whole entry, looked up): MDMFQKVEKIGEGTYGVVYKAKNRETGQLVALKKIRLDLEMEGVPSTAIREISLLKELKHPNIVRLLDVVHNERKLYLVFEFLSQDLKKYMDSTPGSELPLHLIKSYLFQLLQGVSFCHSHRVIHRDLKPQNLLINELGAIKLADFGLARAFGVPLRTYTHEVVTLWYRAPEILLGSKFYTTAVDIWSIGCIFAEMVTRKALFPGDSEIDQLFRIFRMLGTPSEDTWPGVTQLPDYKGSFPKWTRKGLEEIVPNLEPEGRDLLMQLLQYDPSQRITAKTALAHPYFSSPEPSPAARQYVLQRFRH

# Sample 1 — concentration: 1 µM
# Structure (SMILES): Cc1ccc(NC(=O)c2ccnc(C(F)(F)F)c2)cc1-c1cc(OCCO)nc(N2CCOCC2)c1
target,observed,method,reference,remaining binding
"Receptor tyrosine-protein kinase erbB-4 (ERBB4, Homo sapiens, UniProt Q15303)",,competitive binding panel,vehicle,99%
"Calcium-dependent protein kinase 1 (CDPK1, Plasmodium falciparum, UniProt P62344)",competitive binding,DiscoverX scanMAX binding,,77%
"Tyrosine-protein kinase ABL1 (ABL1, Homo sapiens, UniProt P00519, F317L)",,competitive binding scan,,100%

# Sample 2 — host: human; matrix: microsomes or S9; concentration: 2 µM; time: 0.5 h
Structure (SMILES),remaining compound
O=C1CCC2(C(=O)NCCCn3cccn3)CCCC=C2N1C1CCCC1 (stereo not shown),51.2%
C=CCn1cc(Cl)cc/c1=N\C=C(/C#N)C(=O)OCC,54.4%
CCCc1nc(N2CCN(CC(=O)N3CCCC3)CC2)c(C#N)c2c1CCC2,41.7%
CC(=O)c1c[nH]c(C(=O)Nc2cc(C(F)(F)F)ccc2O)c1,1.12%

# Sample 3 — method: phase 2a trial; host: idiopathic pulmonary fibrosis patients
# Structure (SMILES): CC(C)n1cnc(-c2ccc(F)cc2)c1-c1ncc(C(=O)Nc2ccc(N3CCN(C)CC3)cc2)[nH]1
dose,notes,patients with increased interferon-gamma
30 mg once daily,grade 4,0%
30 mg once daily,grade 2,0%
60 mg once daily,grade 2,0%

# Sample 4 — observed: cell-free assay; method: competition with immobilised ligand; concentration: 1 µM
# Structure (SMILES): N#CC1(c2ccccn2)CCN(Cc2cc(C(=O)N3CCCC3)c(=O)n3ccccc23)CC1
target,remaining binding [%]
"Tyrosine-protein kinase ITK/TSK (ITK, Homo sapiens, UniProt Q08881)",95
"Tyrosine-protein kinase ABL1, phosphorylated (ABL1, Homo sapiens, UniProt P00519, T315I)",100
"RAC-gamma serine/threonine-protein kinase (AKT3, Homo sapiens, UniProt Q9Y243)",74
"G protein-coupled receptor kinase 3 (GRK3, Homo sapiens, UniProt P35626)",77
"Serine/threonine-protein kinase ULK3 (ULK3, Homo sapiens, UniProt Q6PHR2)",96
"NUAK family SNF1-like kinase 2 (NUAK2, Homo sapiens, UniProt Q9H093)",100
"Dual specificity mitogen-activated protein kinase kinase 5 (MAP2K5, Homo sapiens, UniProt Q13163)",100
"TGF-beta receptor type-2 (TGFBR2, Homo sapiens, UniProt P37173)",93
"Serine/threonine-protein kinase D1 (PRKD1, Homo sapiens, UniProt Q15139)",95
"Serine/threonine-protein kinase D2 (PRKD2, Homo sapiens, UniProt Q9BZL6)",85
"Serine/threonine-protein kinase Nek9 (NEK9, Homo sapiens, UniProt Q8TD19)",99
"Cyclin-dependent kinase 16 (CDK16, Homo sapiens, UniProt Q00536)",100
"Serine/threonine-protein kinase TBK1 (TBK1, Homo sapiens, UniProt Q9UHD2)",99
"Proto-oncogene tyrosine-protein kinase receptor Ret (RET, Homo sapiens, UniProt P07949, V804L)",92
"Serine/threonine-protein kinase NIM1 (NIM1K, Homo sapiens, UniProt Q8IY84)",95
"Phosphatidylinositol 4,5-bisphosphate 3-kinase catalytic subunit alpha isoform (PIK3CA, Homo sapiens, UniProt P42336)",80
"Serine/threonine-protein kinase TAO2 (TAOK2, Homo sapiens, UniProt Q9UL54)",100
"Hormonally up-regulated neu tumor-associated kinase (HUNK, Homo sapiens, UniProt P57058)",79
"Ephrin type-A receptor 6 (EPHA6, Homo sapiens, UniProt Q9UF33)",100
"Cyclin-dependent kinase 3 (CDK3, Homo sapiens, UniProt Q00526)",79

# Sample 5 — organism: Plasmodium berghei; action: inhibitor; cell line: Huh-7; strain: liver stage; concentration: 10 µM; time: 24 h; reference: untreated control
Structure (SMILES),infection rate
CCCC(=O)O[C@]1(C(=O)CO)CC[C@H]2[C@@H]3CCC4=CC(=O)CC[C@]4(C)[C@H]3[C@@H](O)C[C@@]21C,101%
CC(=O)OCC(=O)[C@@]12OC(C)(C)O[C@@H]1C[C@H]1[C@@H]3C[C@H](F)C4=CC(=O)C=C[C@]4(C)[C@@]3(F)[C@@H](O)C[C@@]12C,83.6%
O[C@H]1[C@H](O)[C@@H](O)[C@H](O)[C@@H](O)[C@H]1O,109%
CC(=O)OCC(=O)[C@@]1(O)CC[C@H]2[C@@H]3CCC4=CC(=O)CC[C@]4(C)[C@@]3(F)[C@@H](O)C[C@@]21C,102%

# Sample 6 — cell line: HaCaT; concentration: 100 µM; time: 18 h
SMILES,viability [%]
COC(=O)[C@H]1[C@H]2C[C@@H]3c4[nH]c5cc(OC)ccc5c4CCN3C[C@H]2C[C@@H](OC(=O)c2cc(OC)c(OC)c(OC)c2)[C@@H]1OC,82.1
CCn1c(=O)c2c(nc(/C=C/c3ccc(OC)c(OC)c3)n2C)n(CC)c1=O,58.7
CCC(=O)OCC(=O)[C@@]1(OC(=O)CC)[C@@H](C)C[C@H]2[C@@H]3CCC4=CC(=O)C=C[C@]4(C)[C@@]3(F)[C@@H](O)C[C@@]21C,71.9

# Sample 7 — observed: enzyme activity; action: inhibitor; concentration: 10 µM
# Target: Calcium/calmodulin-dependent protein kinase type II subunit alpha (CAMK2A, Homo sapiens, UniProt Q9UQM7)
# Sequence of UniProt Q9UQM7 (whole entry, looked up): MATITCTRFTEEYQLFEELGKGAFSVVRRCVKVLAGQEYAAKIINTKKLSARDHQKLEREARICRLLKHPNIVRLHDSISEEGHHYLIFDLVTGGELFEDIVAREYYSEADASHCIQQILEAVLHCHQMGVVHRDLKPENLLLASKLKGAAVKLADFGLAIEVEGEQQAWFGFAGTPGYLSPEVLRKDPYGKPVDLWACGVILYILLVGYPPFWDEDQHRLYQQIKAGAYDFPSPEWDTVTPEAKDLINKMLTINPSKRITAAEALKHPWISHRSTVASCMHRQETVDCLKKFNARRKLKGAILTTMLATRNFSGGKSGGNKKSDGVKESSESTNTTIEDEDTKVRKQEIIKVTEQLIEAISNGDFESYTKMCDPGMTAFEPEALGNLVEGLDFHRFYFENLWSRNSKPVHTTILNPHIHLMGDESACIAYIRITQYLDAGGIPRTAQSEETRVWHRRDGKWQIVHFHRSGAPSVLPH
SMILES,inhibition [%]
O=C1c2ccccc2C(=O)c2c1ccc(O)c2O,8
C[C@@H]1CC[C@]2(C(=O)O)CC[C@]3(C)C(=CC[C@@H]4[C@@]5(C)CC[C@H](O)C(C)(C)[C@@H]5CC[C@]43C)[C@@H]2[C@]1(C)O,-5
CCCCCCCCCCCCCCCCCCCCCCCC(=O)OC,-3

# Some of these lines once more (sample 4):
target,remaining binding [%]
"RAC-gamma serine/threonine-protein kinase (AKT3, Homo sapiens, UniProt Q9Y243)",74
"G protein-coupled receptor kinase 3 (GRK3, Homo sapiens, UniProt P35626)",77
"Serine/threonine-protein kinase ULK3 (ULK3, Homo sapiens, UniProt Q6PHR2)",96
"NUAK family SNF1-like kinase 2 (NUAK2, Homo sapiens, UniProt Q9H093)",100
"Dual specificity mitogen-activated protein kinase kinase 5 (MAP2K5, Homo sapiens, UniProt Q13163)",100
"TGF-beta receptor type-2 (TGFBR2, Homo sapiens, UniProt P37173)",93
